Published values pooled from the literature.

SMILES = Cc1c(C(=O)O)ccc2c3n(nc12)[C@@H]1[C@H](C3)N(CC2CC2)[C@@]2(C(=O)Nc3cc(Cl)ccc32)[C@H]1c1cccc(Cl)c1F; system = human glioblastoma, tumor tissue; quantity = total tumor concentration; value = 130 nmol/L
SMILES = Cc1onc(-c2ccccc2Cl)c1C(=O)N[C@@H]1C(=O)N2[C@@H]1SC(C)(C)[C@@H]2C(=O)O; test = LC-MS/MS; system = human patients, plasma; setting = dose not given, therapeutic drug monitoring, median; quantity = total plasma concentration; value = 10 mg/L
SMILES = C[C@@H](Oc1ccc(S(C)(=O)=O)cc1C(=O)N1C[C@@H]2C[C@]2(c2cc(C(F)(F)F)on2)C1)C(F)(F)F; test = refers to: 14C radioactivity; system = human, urine and faeces; setting = oral, 25 mg, 0 to 677 h, geometric mean; how to read = reference: dose; quantity = total recovery; value = 96.7%
SMILES = N#CCNC(=O)c1ccc(-c2ccnc(Nc3ccc(N4CCOCC4)cc3)n2)cc1; test = population PK model, NONMEM; system = human, plasma; setting = oral, typical value, final model; quantity = total V/F; value = 383 L
SMILES = N#Cc1cccc(-c2ccc3ncc(-c4cc(F)cc(F)c4)c(N4CCC(N)CC4)c3c2)c1O; system = human, male, urine and faeces; setting = oral, 20 mg, 48 h, single dose, mean; how to read = reference: dose; quantity = total radioactivity recovered; value = 44.1%
SMILES = COc1cc(C(=O)N2CCC3(CC2)CC(=O)c2c(cnn2C(C)C)C3)cc(-c2ccc(C(=O)O)cc2)n1; system = human, fasting serum; setting = 100 mg once daily, day 13, adjusted geometric mean; how to read = reference: placebo; quantity = total cholesterol change from baseline; value = -7.6%
SMILES = N#Cc1ccc2c(c1)[C@H]1CCCN(C(=O)c3ccc4[nH]cnc4c3)[C@H]1C2; system = human males; setting = 40 mg, day 15; quantity = total testosterone level; value = 14.6 nmol/L
SMILES = Nc1nc2cc(-c3ccc4ncc(C(=O)N5CCOCC5)n4c3)ccc2o1; system = human, plasma; setting = oral, dose not given, 1 week; how to read = reference: 900 mg once daily over 150 mg; quantity = total weekly exposure ratio; value = ~4
SMILES = CO/N=C(\C(=O)N[C@@H]1C(=O)N2C(C(=O)O)=C(COC(C)=O)CS[C@H]12)c1csc(N)n1; test = LC-MS/MS; system = human patients, plasma; setting = dose not given, therapeutic drug monitoring, median; quantity = total plasma concentration; value = 15 mg/L
SMILES = O=C(/C=C/c1cccc(S(=O)(=O)Nc2ccccc2)c1)NO; system = human, plasma; setting = 2000 mg/m^2, cycle 1 day 1, mean; quantity = total clearance; value = 27.1 L/h/m²
SMILES = C=CC(=O)N(C)CCOc1c(N)ncnc1-c1cc(F)cc(NC(=O)c2ccc(C3CC3)cc2F)c1C; system = human, whole blood; setting = intravenous, 100 µg, uninhibited microdose; quantity = total clearance; value = 1200 mL/min

Excerpt of the above:
SMILES = CO/N=C(\C(=O)N[C@@H]1C(=O)N2C(C(=O)O)=C(COC(C)=O)CS[C@H]12)c1csc(N)n1; test = LC-MS/MS; system = human patients, plasma; setting = dose not given, therapeutic drug monitoring, median; quantity = total plasma concentration; value = 15 mg/L
SMILES = O=C(/C=C/c1cccc(S(=O)(=O)Nc2ccccc2)c1)NO; system = human, plasma; setting = 2000 mg/m^2, cycle 1 day 1, mean; quantity = total clearance; value = 27.1 L/h/m²
